Experimental data from different studies.
Lines come from different studies, so protocols differ. Several values in a cell are separate wells, animals, samples, runs or records.
Chymotrypsinogen A: Chymotrypsinogen A (Bos taurus, UniProt P00766)
PPARA ligand-binding domain: Peroxisome proliferator-activated receptor alpha, ligand-binding domain (PPARA, Homo sapiens, UniProt Q07869)
Sequence of UniProt Q07869 (whole entry, looked up): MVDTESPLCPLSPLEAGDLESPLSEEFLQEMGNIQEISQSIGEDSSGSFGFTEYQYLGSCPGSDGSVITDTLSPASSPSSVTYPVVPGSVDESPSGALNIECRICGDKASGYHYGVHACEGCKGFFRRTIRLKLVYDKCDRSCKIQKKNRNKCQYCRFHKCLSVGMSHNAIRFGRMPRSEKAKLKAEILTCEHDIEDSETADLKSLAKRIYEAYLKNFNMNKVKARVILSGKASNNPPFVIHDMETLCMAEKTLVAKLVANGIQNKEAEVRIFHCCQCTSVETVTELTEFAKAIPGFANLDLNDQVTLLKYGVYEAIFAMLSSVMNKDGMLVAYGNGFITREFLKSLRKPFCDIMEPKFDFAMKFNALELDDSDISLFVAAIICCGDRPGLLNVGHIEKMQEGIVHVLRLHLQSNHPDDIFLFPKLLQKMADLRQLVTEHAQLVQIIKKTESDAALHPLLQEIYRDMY
GBA2: Beta-glucosidase (GBA2, Homo sapiens, UniProt Q9HCG7)
Sequence of UniProt Q9HCG7 (whole entry, looked up): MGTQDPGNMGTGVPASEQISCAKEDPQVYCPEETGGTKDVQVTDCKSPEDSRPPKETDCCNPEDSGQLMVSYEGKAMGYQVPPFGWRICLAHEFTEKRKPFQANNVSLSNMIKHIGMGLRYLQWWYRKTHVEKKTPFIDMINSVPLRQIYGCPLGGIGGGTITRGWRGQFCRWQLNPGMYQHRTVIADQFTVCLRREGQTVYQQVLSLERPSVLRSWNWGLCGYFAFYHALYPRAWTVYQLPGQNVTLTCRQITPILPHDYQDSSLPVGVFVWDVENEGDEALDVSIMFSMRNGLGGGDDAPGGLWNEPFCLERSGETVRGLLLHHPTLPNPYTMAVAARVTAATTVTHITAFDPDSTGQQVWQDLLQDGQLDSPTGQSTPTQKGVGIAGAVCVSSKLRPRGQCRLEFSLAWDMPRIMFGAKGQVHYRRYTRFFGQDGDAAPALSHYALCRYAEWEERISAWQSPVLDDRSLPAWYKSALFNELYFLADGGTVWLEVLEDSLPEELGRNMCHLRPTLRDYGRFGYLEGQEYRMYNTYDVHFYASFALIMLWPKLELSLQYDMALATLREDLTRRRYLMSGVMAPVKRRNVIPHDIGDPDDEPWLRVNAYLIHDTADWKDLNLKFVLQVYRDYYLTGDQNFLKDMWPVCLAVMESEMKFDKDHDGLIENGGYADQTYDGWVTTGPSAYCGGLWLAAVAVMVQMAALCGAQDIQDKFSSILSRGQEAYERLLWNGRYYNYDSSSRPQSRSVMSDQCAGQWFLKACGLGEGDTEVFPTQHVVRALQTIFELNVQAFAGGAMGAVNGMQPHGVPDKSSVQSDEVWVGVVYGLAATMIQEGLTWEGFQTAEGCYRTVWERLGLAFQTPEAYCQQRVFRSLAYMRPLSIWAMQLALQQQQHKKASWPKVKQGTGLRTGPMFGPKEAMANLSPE
IAPP: Islet amyloid polypeptide (IAPP, Homo sapiens, UniProt P10997)
Sequence of UniProt P10997 (whole entry, looked up): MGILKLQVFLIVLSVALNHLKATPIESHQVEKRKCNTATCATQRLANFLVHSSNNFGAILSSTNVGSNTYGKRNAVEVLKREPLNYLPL
Sensor histidine kinase AirS: Sensor histidine kinase AirS (Staphylococcus aureus, UniProt Q2FX96)
CTSB: Cathepsin B (CTSB, Homo sapiens, UniProt P07858)
Sequence of UniProt P00591 (whole entry, looked up): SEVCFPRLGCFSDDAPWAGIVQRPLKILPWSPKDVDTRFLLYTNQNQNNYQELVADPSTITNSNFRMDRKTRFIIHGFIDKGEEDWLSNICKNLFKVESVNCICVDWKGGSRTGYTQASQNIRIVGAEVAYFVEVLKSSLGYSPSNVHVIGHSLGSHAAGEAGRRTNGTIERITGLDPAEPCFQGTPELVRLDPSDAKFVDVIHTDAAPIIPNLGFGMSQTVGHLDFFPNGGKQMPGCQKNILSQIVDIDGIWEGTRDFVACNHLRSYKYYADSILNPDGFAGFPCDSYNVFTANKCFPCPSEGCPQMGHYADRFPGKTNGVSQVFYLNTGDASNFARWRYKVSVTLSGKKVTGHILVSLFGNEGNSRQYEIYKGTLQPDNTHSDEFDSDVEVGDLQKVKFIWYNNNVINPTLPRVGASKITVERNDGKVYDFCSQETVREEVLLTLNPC
Sequence of UniProt Q8IXJ6 (whole entry, looked up): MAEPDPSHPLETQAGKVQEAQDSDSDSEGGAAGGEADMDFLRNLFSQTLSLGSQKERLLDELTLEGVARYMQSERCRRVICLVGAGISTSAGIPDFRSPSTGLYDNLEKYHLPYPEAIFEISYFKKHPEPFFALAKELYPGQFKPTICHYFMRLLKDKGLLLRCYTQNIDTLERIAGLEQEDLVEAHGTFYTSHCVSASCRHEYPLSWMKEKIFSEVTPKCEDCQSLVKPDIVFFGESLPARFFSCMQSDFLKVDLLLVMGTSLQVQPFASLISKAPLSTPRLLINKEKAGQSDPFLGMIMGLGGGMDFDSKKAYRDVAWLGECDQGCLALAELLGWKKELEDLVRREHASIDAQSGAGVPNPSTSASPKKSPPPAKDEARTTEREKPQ
Sequence of UniProt P07550 (whole entry, unmodified, looked up): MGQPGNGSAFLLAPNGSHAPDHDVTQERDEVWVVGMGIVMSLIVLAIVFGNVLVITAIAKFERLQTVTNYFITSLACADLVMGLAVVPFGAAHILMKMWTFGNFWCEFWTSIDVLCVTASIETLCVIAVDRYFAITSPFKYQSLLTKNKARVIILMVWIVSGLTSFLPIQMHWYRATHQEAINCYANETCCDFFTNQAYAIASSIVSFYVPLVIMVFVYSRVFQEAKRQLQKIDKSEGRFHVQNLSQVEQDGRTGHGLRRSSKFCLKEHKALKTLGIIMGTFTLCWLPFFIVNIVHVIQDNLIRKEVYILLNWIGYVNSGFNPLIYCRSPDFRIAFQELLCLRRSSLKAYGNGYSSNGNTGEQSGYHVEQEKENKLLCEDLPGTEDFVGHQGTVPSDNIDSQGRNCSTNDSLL
Sequence of UniProt Q04759 (whole entry, looked up): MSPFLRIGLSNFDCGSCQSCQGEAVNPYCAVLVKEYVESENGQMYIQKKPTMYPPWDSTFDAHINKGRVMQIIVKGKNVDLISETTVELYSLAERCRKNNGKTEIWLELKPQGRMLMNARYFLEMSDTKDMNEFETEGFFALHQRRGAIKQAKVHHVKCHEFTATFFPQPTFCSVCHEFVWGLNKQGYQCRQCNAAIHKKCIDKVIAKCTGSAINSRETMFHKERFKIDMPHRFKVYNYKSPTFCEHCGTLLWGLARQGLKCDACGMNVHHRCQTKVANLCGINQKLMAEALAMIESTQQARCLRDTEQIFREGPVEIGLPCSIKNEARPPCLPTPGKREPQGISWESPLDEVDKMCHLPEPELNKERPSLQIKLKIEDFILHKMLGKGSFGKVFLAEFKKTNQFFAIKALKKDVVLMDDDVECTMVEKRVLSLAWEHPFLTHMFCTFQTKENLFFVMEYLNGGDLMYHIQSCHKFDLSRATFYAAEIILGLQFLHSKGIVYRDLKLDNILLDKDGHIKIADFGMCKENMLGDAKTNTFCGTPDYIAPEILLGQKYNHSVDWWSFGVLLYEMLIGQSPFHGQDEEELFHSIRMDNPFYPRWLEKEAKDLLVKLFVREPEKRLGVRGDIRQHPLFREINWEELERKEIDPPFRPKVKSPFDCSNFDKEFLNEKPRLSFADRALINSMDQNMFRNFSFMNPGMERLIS
Sequence of UniProt P42229 (whole entry, looked up): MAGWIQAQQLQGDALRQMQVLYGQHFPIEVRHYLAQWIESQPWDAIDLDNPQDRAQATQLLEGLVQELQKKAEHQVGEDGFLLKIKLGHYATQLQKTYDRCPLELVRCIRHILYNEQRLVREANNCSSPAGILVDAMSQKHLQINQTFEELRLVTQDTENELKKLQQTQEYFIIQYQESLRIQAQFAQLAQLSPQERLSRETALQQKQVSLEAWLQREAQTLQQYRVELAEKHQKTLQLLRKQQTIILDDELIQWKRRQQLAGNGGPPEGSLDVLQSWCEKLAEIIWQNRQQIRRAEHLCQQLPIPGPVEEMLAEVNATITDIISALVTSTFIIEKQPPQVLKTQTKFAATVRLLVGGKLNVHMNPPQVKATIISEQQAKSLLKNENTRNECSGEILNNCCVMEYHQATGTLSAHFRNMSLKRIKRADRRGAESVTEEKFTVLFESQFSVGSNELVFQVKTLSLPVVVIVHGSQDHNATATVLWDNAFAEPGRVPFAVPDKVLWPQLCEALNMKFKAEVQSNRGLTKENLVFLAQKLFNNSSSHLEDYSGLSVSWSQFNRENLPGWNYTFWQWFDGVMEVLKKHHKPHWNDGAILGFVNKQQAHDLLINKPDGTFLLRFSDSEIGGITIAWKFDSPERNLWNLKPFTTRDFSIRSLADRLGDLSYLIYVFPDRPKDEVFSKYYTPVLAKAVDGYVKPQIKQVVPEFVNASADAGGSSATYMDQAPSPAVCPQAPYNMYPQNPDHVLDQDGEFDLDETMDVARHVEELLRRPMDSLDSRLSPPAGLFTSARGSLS
Sequence of UniProt Q15109 (whole entry, looked up): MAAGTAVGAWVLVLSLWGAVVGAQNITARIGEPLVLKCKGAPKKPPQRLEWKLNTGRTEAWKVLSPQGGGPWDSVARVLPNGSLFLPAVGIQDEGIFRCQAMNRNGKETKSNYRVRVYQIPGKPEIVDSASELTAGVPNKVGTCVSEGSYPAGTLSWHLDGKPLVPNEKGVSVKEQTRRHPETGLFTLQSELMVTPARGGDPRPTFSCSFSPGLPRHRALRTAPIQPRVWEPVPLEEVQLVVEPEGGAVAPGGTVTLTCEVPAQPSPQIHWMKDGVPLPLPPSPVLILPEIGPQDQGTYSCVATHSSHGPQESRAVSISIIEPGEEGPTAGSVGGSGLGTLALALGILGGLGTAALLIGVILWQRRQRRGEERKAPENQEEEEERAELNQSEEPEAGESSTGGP
Sequence of UniProt Q9NSU2 (whole entry, looked up): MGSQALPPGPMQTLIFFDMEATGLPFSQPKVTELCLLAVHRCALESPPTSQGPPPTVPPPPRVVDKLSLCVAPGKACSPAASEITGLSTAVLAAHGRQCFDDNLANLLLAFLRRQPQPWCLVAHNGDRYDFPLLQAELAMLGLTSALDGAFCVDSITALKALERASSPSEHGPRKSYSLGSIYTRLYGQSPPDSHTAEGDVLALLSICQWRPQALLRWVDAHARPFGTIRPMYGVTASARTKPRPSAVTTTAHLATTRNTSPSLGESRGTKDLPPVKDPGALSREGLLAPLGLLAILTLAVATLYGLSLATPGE

Structure (SMILES)	target	assay	system	setting	IC50
COc1c(Cl)cccc1Nc1c(-c2ccncc2C#C[C@@]2(C)CCCN2C(=O)/C=C/CN(C)C)[nH]c2c1C(=O)NCC2	NLK (Homo sapiens, UniProt Q9UBE8)	–	–	–	0.21 µM
O=C(Nc1cccnc1)C(C(F)(F)F)C(F)(F)F	Chymotrypsinogen A	enzyme activity, inhibitor, fluorescence	–	–	83 µM
CCC(O)(C#Cc1ccc2[nH]c3c(c2c1)-c1nc(N)ncc1CCC3)CC	PIP4K2C (Homo sapiens, UniProt Q8TBX8)	target engagement in cells, BRET	–	–	0.58 µM
Cc1c(Cc2ccc(O[C@H](C)C(=O)O)c(Cl)c2)c2ccc(C(=O)N[C@@H](C)c3ccc(C(C)(C)C)cc3)cc2n1C	PPARA ligand-binding domain	reporter gene, luciferase reporter	HEK293T, Gal4-PPARα LBD	–	3.35 µM
O=C1Nc2c(Br)cccc2/C1=C1/Nc2ccccc2C1=NO	PRKCQ (Homo sapiens, UniProt Q04759)	–	–	–	> 10 µM
Fc1ccc(Nc2nc(NC3CCCCC3)c3cc(Br)ccc3n2)cc1F	ADRB2 (Homo sapiens, UniProt P07550, G162A)	β-arrestin2 recruitment, antagonist, BRET	HEK293	mutant G162A, added: isoprenaline 1 µM	0.1 µM
OC[C@H]1[C@@H](O)[C@H](O)[C@@H](O)CN1CCCCCOCc1ccsc1	GBA2	inhibitor, 4MU-β-D-glucopyranoside	HEK293T homogenates overexpressing GBA2	–	0.007 µM
COc1cc(-c2ccc3c(c2)Nc2cccc(Cl)c2NC3=O)ccc1O	CHEK1 (Homo sapiens, UniProt O14757)	enzyme activity, inhibitor	–	–	> 10 µM
CN(C)c1ccc(/N=N/c2ccc(NC(=O)CCCCN)cc2)cc1	IAPP	ThT displacement, ThT fluorescence	–	pH 7.4, preformed target-ThT complex, added: 5 µM ThT	0.5 µM
OC[C@@H]1[C@@H](O)[C@H](O)[C@@H](O)CN1CCCCCOCc1ccc(-c2ccc(Br)cc2)cc1	GBA2	inhibitor, 4MU-β-D-glucopyranoside	HEK293T homogenates overexpressing GBA2	–	4e-05 µM
Cc1c(Cc2cccc(OC(C)C(=O)O)c2)c2ccc(C(=O)NC(C)c3ccc(C(C)C)cc3)cc2n1C (mixture of isomers)	PPARA ligand-binding domain	reporter gene, luciferase reporter	HEK293T, Gal4-PPARα LBD	–	9.32 µM
COc1cc(/C=C/c2n[nH]c(-[c-]3cccc3)c2C)ccc1O.[Fe+2].c1cc[cH-]c1	APP (Homo sapiens, UniProt P05067)	amyloid aggregation, inhibitor, fluorescence	–	pH 6.9	16.6 µM
Cc1c(Cc2cccc(OC(C)C(=O)O)c2)c2ccc(C(=O)N[C@@H](C)c3ccc(C(F)(F)F)cc3)cc2n1C (some centres unmarked)	PPARA ligand-binding domain	reporter gene, luciferase reporter	HEK293T, Gal4-PPARα LBD	–	5.16 µM
CCCCCNC(=O)N1N=C(c2ccc(Cl)cc2)CC1c1ccc(NC(=O)Nc2ccc(Cl)cc2)cc1 (centres unmarked)	AGER (Homo sapiens, UniProt Q15109)	–	–	–	25 µM
CC1Cc2ccccc2N1C1=C(c2ccc(F)cc2)C(=O)NC1=O (centres unmarked)	Sensor histidine kinase AirS	autophosphorylation, inhibitor, BODIPY-FL-ATPγS in-gel fluorescence	–	lower bound of confidence interval	> 130 µM
Cc1nc2ccccc2c(=O)n1N	CTSB	enzyme activity, inhibitor	–	–	163 µM
CCCCCCCCN1C[C@H](O)[C@@H](O)[C@H](O)[C@H]1CO	GBA2	inhibitor, 4MU-β-D-glucopyranoside	HEK293T homogenates overexpressing GBA2	–	0.02 µM
CC(C)(C)c1ccc(C2CC(=O)N2S(=O)(=O)c2cccc(Cl)c2)cc1 (centres unmarked)	Chymotrypsinogen A	enzyme activity, inhibitor, fluorescence	–	–	3 µM
Cc1ccc(-c2nn(-c3ccc(S(C)(=O)=O)cc3)cc2/C=N/N=C2/NC(=O)CS2)cc1	EGFR (Homo sapiens, UniProt P00533)	enzyme activity, inhibitor	–	–	0.226 µM

Structure (SMILES)	target	assay	system	setting	IC50
CCCCCCCCCCCCNC(=S)NCCCC[C@H](NC(=O)OCc1ccccc1)C(=O)N[C@@H](Cc1c[nH]c2ccccc12)C(=O)NC(C)C	SIRT2 (Homo sapiens, UniProt Q8IXJ6)	enzyme activity, inhibitor	–	–	0.45 µM
CC1Cc2ccccc2N1C1=C(c2ccccc2)C(=O)NC1=O (centres unmarked)	Sensor histidine kinase AirS	autophosphorylation, inhibitor, BODIPY-FL-ATPγS in-gel fluorescence	–	lower bound of confidence interval	153 µM
O=C(Cc1ccccc1)NCCOc1ccccc1NC(=O)C(C(F)(F)F)C(F)(F)F	Chymotrypsinogen A	enzyme activity, inhibitor, fluorescence	–	–	88 µM
Cc1c(Cc2cccc(O[C@H](C)C(=O)O)c2Cl)c2ccc(C(=O)N[C@@H](C)c3ccc(C(C)(C)C)cc3)cc2n1C	PPARA ligand-binding domain	reporter gene, luciferase reporter	HEK293T, Gal4-PPARα LBD	–	27.6 µM
COc1ccc(CNC(=O)C(C(F)(F)F)C(F)(F)F)cc1	Chymotrypsinogen A	enzyme activity, inhibitor, fluorescence	–	–	> 100 µM
O=C1C(Nc2ccc(Cl)cc2)c2ccccc2N1Cc1ccccc1 (centres unmarked)	PIK3CG (Homo sapiens, UniProt P48736)	enzyme activity, inhibitor, ADP detection	–	–	0.00951 µM
OC[C@@H]1[C@@H](O)[C@H](O)[C@@H](O)CN1CCCCCOCC1CCC1	GBA2	inhibitor, 4MU-β-D-glucopyranoside	HEK293T homogenates overexpressing GBA2	–	0.009 µM
O=C(Nc1ccc(Oc2ccccc2)cc1)C(C(F)(F)F)C(F)(F)F	Chymotrypsinogen A	enzyme activity, inhibitor, fluorescence	–	–	> 100 µM
Cc1c(Cc2ccc(Cl)c(O[C@H](C)C(=O)O)c2)c2ccc(C(=O)NCc3ccc(C(C)(C)C)cc3)cc2n1C	PPARA ligand-binding domain	reporter gene, luciferase reporter	HEK293T, Gal4-PPARα LBD	–	3.94 µM
COc1cc([C@@H]2O[C@@H](c3cc(OC)c(O[C@@H]4O[C@H](CO)[C@@H](O)[C@H](O)[C@H]4O)c(OC)c3)[C@H](CO)[C@H]2CO)cc(OC)c1O	PNLIP (Sus scrofa, UniProt P00591)	enzyme activity, inhibitor	–	–	~40.7 µM and 40.7 µM
CN(C)c1ccc(/N=N/c2ccc(C(=O)NCC(=O)OCCN)cc2)cc1	IAPP	ThT displacement, ThT fluorescence	–	pH 7.4, preformed target-ThT complex, added: 5 µM ThT	1.7 µM
O=C(COc1ccc2ccccc2c1)NCc1ccc(OP(=O)(O)O)cc1	Signal transducer and activator of transcription 5A, SH2 (Homo sapiens, UniProt P42229)	ligand displacement, FP	–	–	81 µM
CCCCOCCCCCN1C[C@H](O)[C@@H](O)[C@H](O)[C@@H]1CO	GBA2	inhibitor, 4MU-β-D-glucopyranoside	HEK293T homogenates overexpressing GBA2	–	1 µM
Cc1cccc(C)c1NC(=O)C(C(F)(F)F)C(F)(F)F	Chymotrypsinogen A	enzyme activity, inhibitor, fluorescence	–	–	9 µM
CCOC(=O)/C=C/C(=O)[C@H](CC(C)C)NC(=O)[C@H](Cc1ccccc1)NC(=O)[C@H](Cc1ccccc1)n1cc(CCCCC2=C3C(C)=CC(C)=[N+]3[B-](F)(F)n3c(C)cc(C)c32)nn1 (mixture of isomers)	CTSB	enzyme activity, inhibitor	–	–	4.98 µM
OC[C@@H]1[C@@H](O)[C@H](O)[C@@H](O)CN1CCCCCOCc1ccc(-c2ccccc2)c(C(F)(F)F)c1	GBA2	inhibitor, 4MU-β-D-glucopyranoside	HEK293T homogenates overexpressing GBA2	–	8e-05 µM
O=C(NCc1ccccc1)C(C(F)(F)F)C(F)(F)F	Chymotrypsinogen A	enzyme activity, inhibitor, fluorescence	–	–	63 µM
OC[C@H]1N[C@H](CCCCCOCC23CC4CC(CC(C4)C2)C3)[C@H](O)[C@@H](O)[C@@H]1O	GBA2	inhibitor, 4MU-β-D-glucopyranoside	HEK293T homogenates overexpressing GBA2	–	0.3 µM
O=S(=O)(O)c1cc(O)c2ccc(Nc3ccc4c(O)cc(S(=O)(=O)O)cc4c3)cc2c1	TREX1 (Homo sapiens, UniProt Q9NSU2)	enzyme activity, inhibitor	–	–	1.93 µM

For quick reference, copied from above:
Structure (SMILES)	target	assay	system	setting	IC50
Cc1ccc(-c2nn(-c3ccc(S(C)(=O)=O)cc3)cc2/C=N/N=C2/NC(=O)CS2)cc1	EGFR (Homo sapiens, UniProt P00533)	enzyme activity, inhibitor	–	–	0.226 µM
OC[C@H]1N[C@H](CCCCCOCC23CC4CC(CC(C4)C2)C3)[C@H](O)[C@@H](O)[C@@H]1O	GBA2	inhibitor, 4MU-β-D-glucopyranoside	HEK293T homogenates overexpressing GBA2	–	0.3 µM
CCCCCCCCN1C[C@H](O)[C@@H](O)[C@H](O)[C@H]1CO	GBA2	inhibitor, 4MU-β-D-glucopyranoside	HEK293T homogenates overexpressing GBA2	–	0.02 µM
